# Results of several laboratories.
# Parts stem from different laboratories: compare values within a part only. “And” joins repeats or separate records; there may be more than shown.
# UniProt Q96RR4, sequence (whole entry, looked up): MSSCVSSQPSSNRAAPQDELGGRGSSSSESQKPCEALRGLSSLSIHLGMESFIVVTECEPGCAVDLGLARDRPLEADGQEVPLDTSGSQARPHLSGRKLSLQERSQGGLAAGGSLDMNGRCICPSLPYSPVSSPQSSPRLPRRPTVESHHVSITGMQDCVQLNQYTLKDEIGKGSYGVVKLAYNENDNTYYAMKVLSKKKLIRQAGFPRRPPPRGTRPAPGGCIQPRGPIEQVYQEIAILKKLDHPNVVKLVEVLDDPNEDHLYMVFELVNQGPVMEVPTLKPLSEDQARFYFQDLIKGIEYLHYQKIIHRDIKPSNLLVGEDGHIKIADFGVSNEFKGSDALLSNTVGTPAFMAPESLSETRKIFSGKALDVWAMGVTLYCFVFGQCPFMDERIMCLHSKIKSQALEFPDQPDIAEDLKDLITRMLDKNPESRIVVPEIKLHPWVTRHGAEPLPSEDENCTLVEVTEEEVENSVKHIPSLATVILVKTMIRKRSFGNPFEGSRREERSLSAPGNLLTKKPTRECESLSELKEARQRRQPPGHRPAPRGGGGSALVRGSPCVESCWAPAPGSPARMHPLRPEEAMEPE
# UniProt P51451, sequence (whole entry, looked up): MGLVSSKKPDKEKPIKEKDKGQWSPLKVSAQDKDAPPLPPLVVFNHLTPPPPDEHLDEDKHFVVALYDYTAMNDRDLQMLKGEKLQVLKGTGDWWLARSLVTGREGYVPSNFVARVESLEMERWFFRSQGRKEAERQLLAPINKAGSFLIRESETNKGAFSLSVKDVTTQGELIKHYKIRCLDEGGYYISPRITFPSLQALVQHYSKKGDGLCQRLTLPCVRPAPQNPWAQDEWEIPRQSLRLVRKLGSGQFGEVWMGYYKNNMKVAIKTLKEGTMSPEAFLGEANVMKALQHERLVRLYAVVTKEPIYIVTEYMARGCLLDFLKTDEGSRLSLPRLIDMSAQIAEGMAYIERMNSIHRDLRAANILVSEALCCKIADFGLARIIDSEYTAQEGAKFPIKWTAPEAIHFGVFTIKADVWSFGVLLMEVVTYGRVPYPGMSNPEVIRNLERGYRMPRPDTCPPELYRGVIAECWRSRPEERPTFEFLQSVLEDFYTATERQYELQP

# Series 1
# SMILES: O=C(Nc1cnc(Oc2ccc(F)cc2)nc1)N1CCc2ncccc2[C@@H]1c1ccc(F)cc1
# Observed: cell-free assay
# Technique: competition with immobilised ligand
# Concentration: 1 µM
target,remaining binding
"TNNI3K (Homo sapiens, UniProt Q59H18)",100%
"EGFR (Homo sapiens, UniProt P00533, del747-752/P753S)",100%
"HIPK3 (Homo sapiens, UniProt Q9H422)",90%
"STK39 (Homo sapiens, UniProt Q9UEW8)",77%
"CAMKK2 (Homo sapiens, UniProt Q96RR4)",93%
"DAPK3 (Homo sapiens, UniProt O43293)",100%
"PIK3C3 (Homo sapiens, UniProt Q8NEB9)",100%
"FLT3 (Homo sapiens, UniProt P36888, K663Q)",100%
"BLK (Homo sapiens, UniProt P51451)",80%
"CSNK1E (Homo sapiens, UniProt P49674)",66%
"CAMK4 (Homo sapiens, UniProt Q16566)",97%

# Series 2
# Target: DNA polymerase theta, ATPase domain (POLQ, Homo sapiens, UniProt O75417)
# UniProt O75417, sequence (whole entry, unmodified, looked up): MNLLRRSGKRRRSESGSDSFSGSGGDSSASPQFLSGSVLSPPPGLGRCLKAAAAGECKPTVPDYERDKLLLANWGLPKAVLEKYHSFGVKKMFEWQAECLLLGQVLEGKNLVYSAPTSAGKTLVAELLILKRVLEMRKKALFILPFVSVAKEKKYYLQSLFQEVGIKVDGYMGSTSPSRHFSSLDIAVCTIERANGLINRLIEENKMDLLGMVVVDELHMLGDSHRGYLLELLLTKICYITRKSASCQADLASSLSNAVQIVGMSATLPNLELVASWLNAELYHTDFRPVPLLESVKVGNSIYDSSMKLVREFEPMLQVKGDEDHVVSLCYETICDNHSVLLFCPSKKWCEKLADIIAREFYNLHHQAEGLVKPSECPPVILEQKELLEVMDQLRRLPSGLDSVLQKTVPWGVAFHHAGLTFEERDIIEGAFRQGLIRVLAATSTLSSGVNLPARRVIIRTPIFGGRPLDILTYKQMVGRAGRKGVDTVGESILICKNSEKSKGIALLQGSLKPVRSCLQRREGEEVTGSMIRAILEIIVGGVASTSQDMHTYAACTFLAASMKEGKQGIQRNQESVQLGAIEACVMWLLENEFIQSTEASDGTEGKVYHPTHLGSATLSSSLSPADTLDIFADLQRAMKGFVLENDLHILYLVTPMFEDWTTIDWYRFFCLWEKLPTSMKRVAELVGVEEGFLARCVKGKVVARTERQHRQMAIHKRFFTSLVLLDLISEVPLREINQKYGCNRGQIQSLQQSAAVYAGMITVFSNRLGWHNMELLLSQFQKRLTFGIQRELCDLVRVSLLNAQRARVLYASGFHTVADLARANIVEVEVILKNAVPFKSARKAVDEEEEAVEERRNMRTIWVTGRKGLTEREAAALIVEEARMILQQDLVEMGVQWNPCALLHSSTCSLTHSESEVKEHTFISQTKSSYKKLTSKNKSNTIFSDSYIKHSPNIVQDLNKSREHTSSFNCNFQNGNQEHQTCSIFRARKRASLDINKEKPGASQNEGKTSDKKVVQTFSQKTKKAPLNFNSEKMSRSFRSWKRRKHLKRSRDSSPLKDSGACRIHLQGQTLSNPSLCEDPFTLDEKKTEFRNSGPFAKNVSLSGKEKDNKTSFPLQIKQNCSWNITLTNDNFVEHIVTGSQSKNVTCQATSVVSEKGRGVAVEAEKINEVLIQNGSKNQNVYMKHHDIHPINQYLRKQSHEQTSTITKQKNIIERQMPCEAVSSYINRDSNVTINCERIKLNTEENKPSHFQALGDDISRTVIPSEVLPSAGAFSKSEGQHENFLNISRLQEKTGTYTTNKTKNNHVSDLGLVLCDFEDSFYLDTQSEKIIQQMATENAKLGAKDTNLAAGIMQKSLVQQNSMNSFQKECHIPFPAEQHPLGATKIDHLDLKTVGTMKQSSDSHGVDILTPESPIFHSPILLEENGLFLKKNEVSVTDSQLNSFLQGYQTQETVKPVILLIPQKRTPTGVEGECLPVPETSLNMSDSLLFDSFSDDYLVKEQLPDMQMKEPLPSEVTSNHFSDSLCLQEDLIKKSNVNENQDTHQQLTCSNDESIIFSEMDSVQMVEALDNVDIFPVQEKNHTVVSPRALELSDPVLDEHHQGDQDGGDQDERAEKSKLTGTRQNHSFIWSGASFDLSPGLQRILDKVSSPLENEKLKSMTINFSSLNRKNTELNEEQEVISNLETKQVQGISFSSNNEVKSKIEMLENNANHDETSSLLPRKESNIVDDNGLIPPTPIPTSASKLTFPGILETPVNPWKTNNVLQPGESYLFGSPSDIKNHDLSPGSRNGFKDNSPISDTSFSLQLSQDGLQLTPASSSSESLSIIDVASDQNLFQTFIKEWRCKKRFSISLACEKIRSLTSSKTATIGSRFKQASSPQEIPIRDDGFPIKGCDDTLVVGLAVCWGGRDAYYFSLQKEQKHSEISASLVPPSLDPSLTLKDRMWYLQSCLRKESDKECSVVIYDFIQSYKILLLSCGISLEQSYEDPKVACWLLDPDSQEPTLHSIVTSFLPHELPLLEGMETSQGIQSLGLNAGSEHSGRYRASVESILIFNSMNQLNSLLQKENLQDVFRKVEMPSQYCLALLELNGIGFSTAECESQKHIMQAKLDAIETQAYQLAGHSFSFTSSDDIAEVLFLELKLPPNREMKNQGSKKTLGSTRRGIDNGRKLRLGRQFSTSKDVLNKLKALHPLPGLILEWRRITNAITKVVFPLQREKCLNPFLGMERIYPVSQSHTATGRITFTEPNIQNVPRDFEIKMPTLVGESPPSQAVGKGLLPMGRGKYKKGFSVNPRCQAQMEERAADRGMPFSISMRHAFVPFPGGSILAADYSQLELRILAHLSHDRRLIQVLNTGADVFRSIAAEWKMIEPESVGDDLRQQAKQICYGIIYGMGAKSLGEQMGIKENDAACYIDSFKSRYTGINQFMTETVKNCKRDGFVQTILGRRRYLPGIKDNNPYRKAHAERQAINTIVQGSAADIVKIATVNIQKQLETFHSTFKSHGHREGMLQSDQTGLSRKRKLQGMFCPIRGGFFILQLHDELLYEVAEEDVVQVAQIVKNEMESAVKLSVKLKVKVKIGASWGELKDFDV
# Observed: enzyme activity
# Action: inhibitor
# Concentration: 77 µM
# Relative to: untreated
SMILES,remaining activity
CCN(CC)CCCCNc1ncc2cc(-c3c(Cl)cccc3Cl)c(NC(=O)NC(C)(C)C)nc2n1,95.3%
C[C@]1(c2nc3c(C(N)=O)cccc3[nH]2)CCCN1,95.8%
CCOC(=O)c1ccc(N)cc1,94.4% and 102%
CCc1c(C)[nH]c2c1C(=O)C(CN1CCOCC1)CC2 (centres unmarked),89.3%
Nc1ccc(S(=O)(=O)Nc2ncccn2)cc1,92.7% and 99.2%
CCCCC(CC)CNC(=N)NC(=N)NCCCCCCNC(=N)NC(=N)NCC(CC)CCCC (centres unmarked),102%
O=C1Nc2ccccc2/C1=C\c1c(Cl)[nH]c2ccccc12,104%
O=C1NC(=O)/C(=C\c2ccc3nccnc3c2)S1,100%
COCCOc1ccc2c(c1)ncn2-c1ccc2cccc(N3CCC(N)CC3)c2n1,91.9%
CCOc1ccc2c(c1)C(C)=CC(C)(C)N2,101%

# Series 3
# Target: Mitogen-activated protein kinase kinase kinase 20 (MAP3K20, Homo sapiens, UniProt Q9NYL2)
# UniProt Q9NYL2, sequence (whole entry, looked up): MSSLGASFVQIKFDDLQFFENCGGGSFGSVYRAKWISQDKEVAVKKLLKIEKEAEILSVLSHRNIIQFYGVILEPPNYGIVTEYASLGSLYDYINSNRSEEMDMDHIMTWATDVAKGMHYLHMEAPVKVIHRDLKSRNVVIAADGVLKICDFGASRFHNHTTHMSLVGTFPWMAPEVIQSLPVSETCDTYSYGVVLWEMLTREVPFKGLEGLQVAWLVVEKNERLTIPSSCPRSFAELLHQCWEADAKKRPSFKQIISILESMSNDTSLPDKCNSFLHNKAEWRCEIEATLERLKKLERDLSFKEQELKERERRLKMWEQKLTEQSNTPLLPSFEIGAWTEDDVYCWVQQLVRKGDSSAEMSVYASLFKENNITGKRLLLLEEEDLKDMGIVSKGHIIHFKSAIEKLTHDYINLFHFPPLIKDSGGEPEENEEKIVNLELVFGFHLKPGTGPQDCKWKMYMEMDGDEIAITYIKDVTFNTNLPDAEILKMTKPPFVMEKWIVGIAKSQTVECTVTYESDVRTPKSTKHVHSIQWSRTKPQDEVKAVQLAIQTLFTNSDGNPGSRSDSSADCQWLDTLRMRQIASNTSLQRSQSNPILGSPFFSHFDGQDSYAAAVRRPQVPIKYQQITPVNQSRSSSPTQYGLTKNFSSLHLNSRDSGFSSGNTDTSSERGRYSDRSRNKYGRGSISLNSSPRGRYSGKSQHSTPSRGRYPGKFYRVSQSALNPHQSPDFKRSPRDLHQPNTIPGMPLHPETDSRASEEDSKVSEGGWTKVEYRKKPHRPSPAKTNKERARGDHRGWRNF
# Observed: enzyme activity
# Action: inhibitor
# Concentration: 0.5 µM
# Relative to: control
Structure (SMILES),remaining activity
COc1cc2ncnc(Nc3ccc(Oc4ccccc4)cc3)c2cc1OC,95.2%
O=C(Nc1cccc(Nc2cc(Nc3cccc(C(F)(F)F)c3)ncn2)c1)C1CC1,97.1%
Nc1[nH]nc2nc3ccccc3nc12,96.3%
Cc1ccc(Nc2nccc(N(C)c3ccc4c(C)n(C)nc4c3)n2)cc1S(N)(=O)=O,96.9%
CN(C)c1ccc(C=C2C(=O)Nc3ccccc32)cc1,96.5%
N#CC(C#N)=C(N)/C(C#N)=C/c1ccc(O)cc1,95.7%
O=C1NC(=O)C(c2cn(CCCO)c3ncccc23)=C1c1cnccn1,96.4%
COc1ccc(CNC(=O)Nc2ncc([N+](=O)[O-])s2)cc1,101%
O=c1c2ccccc2[nH]c(=S)n1CCN1CCC(=C(c2ccc(F)cc2)c2ccc(F)cc2)CC1,98.6%
Cc1nc(-c2ccccc2)c(-c2ccncc2)o1,89%
Cn1c2ccccc2c2c3c(c4c5ccccc5n(CCC#N)c4c21)CNC3=O,86.6%
NCCNc1ncc(C(N)=O)c(Nc2cccc(C(F)(F)F)c2)n1,111%
OCC(O)CCON=C1C(c2c(O)[nH]c3ccccc23)=Nc2ccccc21 (centres unmarked),76.4%
C#Cc1cccc(Nc2ncnc3cc(OCCOC)c(OCCOC)cc23)c1,92.2%
CO[C@H]1C[C@@H]2CC[C@@H](C)[C@@](O)(O2)C(=O)C(=O)N2CCCC[C@H]2C(=O)O[C@H]([C@H](C)C[C@@H]2CC[C@@H](O)[C@H](OC)C2)CC(=O)[C@H](C)/C=C(\C)[C@@H](O)[C@@H](OC)C(=O)[C@H](C)C[C@H](C)/C=C/C=C/C=C/1C,103%

# Series 4
# SMILES: Cc1cc2c(C(N)=O)c(N)n(-c3c(C)ccc(O)c3C)c2nc1C
# SRC: Proto-oncogene tyrosine-protein kinase Src (SRC, Homo sapiens, UniProt P12931)
target or system,assay,setting,inhibition
LN-229,cell proliferation,13.72 nM,-5.97% and -6.09% and -9.41%
SRC,"enzyme activity, inhibitor, TR-FRET",1.111 µM,99.1%
HuCCT-1,cell proliferation,41.15 nM,0.15% and 2.54% and 3.52%
RKO,cell proliferation,4.572 nM,-5.75% and -0.02%
"BRAF (Homo sapiens, UniProt P15056)","kinase activity, ADP-Glo",3.333 µM,101%
HCC1569,"automated immunoblotting, refers to: CDK1 phospho-Thr14","concentration not given, 4 h after washout",24.3%
SRC,"kinase activity, inhibitor, HTRF",0.01372 µM,68.6%
NCI-H1568,cell proliferation,13.72 nM,4.17% and 10.5% and 6.15%
MDA-MB-436,cell proliferation,1.52 nM,-3.1% and -6.87% and -1.49%
SRC,"kinase activity, inhibitor, HTRF",0.004572 µM,40.9%
LN-229,cell proliferation,30000 nM,97.8%

# For quick reference, copied from above (series 4):
target or system,assay,setting,inhibition
SRC,"kinase activity, inhibitor, HTRF",0.01372 µM,68.6%
LN-229,cell proliferation,13.72 nM,-5.97% and -6.09% and -9.41%
"BRAF (Homo sapiens, UniProt P15056)","kinase activity, ADP-Glo",3.333 µM,101%
NCI-H1568,cell proliferation,13.72 nM,4.17% and 10.5% and 6.15%
